Results from different studies.
Every numbered part comes from another study and shows a few of its results, in no order. Several values in a cell are separate wells, animals, samples, runs or records.
Chain of UniProt P27361 (whole entry, looked up): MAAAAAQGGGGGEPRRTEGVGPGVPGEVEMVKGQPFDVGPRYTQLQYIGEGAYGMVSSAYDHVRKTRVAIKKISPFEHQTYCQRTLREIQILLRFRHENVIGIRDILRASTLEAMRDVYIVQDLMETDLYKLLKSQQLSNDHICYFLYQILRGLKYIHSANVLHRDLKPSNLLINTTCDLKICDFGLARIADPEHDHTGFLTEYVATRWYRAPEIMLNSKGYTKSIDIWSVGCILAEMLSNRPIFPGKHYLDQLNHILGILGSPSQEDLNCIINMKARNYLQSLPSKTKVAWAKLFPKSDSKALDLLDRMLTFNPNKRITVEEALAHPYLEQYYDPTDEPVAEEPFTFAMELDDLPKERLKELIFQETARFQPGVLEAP
Chain of UniProt P53671 (whole entry, looked up): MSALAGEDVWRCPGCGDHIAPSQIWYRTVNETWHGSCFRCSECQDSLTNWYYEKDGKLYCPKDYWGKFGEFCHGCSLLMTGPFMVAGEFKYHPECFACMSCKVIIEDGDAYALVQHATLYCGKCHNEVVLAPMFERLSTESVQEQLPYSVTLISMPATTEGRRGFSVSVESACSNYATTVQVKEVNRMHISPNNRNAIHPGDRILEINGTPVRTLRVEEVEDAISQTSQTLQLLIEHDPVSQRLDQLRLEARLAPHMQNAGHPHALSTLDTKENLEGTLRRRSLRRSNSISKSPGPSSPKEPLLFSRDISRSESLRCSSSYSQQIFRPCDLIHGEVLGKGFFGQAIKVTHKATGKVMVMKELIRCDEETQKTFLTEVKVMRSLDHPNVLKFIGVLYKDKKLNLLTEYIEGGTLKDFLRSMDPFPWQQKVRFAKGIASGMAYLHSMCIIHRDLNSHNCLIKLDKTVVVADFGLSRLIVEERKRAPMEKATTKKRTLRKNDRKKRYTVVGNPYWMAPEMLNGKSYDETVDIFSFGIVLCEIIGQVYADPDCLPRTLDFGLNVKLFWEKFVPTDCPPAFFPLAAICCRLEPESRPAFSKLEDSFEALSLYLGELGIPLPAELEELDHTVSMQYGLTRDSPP
Chain of UniProt Q9Y6M4 (whole entry, looked up): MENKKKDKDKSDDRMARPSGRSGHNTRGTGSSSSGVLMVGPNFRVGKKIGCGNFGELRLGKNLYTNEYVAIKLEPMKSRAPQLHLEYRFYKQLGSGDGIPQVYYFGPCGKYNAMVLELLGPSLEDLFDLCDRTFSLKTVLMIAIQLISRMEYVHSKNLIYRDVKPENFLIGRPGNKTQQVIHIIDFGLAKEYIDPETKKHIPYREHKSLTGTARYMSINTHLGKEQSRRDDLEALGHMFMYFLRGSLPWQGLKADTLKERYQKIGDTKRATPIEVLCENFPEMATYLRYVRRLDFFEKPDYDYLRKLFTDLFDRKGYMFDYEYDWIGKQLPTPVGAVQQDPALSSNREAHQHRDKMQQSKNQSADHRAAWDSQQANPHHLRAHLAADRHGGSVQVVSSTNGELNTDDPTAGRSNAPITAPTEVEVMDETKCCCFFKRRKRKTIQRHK
Chain of UniProt Q16832 (whole entry, looked up): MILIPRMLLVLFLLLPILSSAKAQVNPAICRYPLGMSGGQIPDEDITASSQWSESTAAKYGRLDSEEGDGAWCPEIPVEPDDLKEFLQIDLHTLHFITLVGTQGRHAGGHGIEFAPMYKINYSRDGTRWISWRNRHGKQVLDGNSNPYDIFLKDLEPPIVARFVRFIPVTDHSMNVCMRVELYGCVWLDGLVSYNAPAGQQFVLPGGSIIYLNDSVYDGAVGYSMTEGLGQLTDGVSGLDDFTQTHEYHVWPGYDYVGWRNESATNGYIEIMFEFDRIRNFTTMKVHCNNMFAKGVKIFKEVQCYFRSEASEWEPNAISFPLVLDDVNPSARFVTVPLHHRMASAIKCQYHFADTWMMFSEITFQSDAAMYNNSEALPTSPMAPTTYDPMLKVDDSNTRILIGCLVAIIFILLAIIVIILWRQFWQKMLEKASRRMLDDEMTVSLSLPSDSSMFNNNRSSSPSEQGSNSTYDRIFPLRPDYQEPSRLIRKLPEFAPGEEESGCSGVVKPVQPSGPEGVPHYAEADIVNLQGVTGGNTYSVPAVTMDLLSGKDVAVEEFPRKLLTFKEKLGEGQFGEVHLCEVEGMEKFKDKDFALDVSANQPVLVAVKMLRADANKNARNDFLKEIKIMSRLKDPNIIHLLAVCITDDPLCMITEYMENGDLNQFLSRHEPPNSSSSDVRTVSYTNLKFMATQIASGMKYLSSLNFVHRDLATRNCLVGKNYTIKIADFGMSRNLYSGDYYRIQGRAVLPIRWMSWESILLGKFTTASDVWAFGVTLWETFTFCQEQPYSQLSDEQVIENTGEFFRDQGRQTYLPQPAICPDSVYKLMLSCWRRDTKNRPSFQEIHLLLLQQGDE
Chain of UniProt Q16512 (whole entry, looked up): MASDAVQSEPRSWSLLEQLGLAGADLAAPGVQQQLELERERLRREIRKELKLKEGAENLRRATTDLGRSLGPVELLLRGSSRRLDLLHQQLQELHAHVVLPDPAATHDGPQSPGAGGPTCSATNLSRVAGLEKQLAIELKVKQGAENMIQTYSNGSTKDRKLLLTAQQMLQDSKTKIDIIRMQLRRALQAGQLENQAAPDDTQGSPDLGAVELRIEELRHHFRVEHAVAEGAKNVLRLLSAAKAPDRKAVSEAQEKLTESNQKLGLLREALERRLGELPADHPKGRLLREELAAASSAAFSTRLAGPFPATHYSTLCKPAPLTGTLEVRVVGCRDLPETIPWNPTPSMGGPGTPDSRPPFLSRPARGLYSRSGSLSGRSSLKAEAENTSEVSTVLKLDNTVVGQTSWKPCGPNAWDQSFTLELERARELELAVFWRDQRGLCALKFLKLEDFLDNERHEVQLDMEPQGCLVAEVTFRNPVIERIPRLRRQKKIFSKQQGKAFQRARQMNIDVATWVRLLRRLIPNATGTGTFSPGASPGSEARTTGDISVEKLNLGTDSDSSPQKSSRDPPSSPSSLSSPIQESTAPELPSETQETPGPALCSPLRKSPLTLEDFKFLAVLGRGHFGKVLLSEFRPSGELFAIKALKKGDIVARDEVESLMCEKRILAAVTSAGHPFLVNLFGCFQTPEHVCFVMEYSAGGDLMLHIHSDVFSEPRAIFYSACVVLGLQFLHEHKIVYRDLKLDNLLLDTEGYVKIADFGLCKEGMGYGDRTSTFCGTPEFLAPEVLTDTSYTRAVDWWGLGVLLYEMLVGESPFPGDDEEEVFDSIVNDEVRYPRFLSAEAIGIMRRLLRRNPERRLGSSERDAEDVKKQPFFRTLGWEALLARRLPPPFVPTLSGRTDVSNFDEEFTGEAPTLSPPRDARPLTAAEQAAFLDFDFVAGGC
Chain of UniProt P37023 (whole entry, looked up): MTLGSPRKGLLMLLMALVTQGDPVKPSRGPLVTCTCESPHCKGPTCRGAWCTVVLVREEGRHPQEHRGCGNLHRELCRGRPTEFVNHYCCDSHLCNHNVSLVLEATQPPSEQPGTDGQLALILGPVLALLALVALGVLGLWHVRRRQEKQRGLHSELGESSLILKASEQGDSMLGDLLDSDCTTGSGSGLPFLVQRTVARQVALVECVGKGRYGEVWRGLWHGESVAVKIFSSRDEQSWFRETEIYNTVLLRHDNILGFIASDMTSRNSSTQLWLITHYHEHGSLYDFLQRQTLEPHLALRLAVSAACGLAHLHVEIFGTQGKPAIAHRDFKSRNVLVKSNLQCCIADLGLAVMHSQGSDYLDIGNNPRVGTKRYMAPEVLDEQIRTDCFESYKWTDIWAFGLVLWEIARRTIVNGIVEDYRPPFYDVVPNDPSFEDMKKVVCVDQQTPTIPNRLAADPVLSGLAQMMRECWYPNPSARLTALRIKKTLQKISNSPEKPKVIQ
Chain of UniProt Q86UE8 (whole entry, looked up): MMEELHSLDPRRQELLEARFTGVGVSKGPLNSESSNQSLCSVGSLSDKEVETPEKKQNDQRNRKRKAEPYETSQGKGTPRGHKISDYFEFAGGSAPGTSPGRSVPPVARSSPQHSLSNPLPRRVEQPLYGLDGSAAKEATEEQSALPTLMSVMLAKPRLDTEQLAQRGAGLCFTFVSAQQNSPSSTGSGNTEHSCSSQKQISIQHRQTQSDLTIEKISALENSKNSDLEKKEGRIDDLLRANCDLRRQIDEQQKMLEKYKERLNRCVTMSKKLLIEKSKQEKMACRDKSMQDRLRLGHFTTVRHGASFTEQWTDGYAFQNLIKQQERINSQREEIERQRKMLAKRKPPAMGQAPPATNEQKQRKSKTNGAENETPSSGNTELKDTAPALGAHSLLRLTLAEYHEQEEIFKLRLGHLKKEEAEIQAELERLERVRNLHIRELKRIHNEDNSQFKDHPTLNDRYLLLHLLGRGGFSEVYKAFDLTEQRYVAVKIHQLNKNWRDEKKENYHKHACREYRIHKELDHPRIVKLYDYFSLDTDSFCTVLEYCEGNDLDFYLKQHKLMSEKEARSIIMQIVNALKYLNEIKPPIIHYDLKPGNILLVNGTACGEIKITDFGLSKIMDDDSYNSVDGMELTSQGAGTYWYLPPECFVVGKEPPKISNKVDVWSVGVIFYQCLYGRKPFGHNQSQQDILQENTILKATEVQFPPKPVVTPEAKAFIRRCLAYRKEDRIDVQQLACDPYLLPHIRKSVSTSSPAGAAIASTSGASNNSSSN

Study 1
SMILES: CN1CCN(C(=O)c2ccc(NC(=O)Nc3ccc(N(C)c4ccnc(Nc5ccc(CS(C)(=O)=O)cc5)n4)cc3)cc2)CC1
Effect on: binding
Concentration: 1 µM
target | assay | remaining binding [%]
MAPK3 (Homo sapiens, UniProt P27361) | – | 100
DDR2 (Homo sapiens, UniProt Q16832) | competition with immobilised ligand | 0
PKN1 (Homo sapiens, UniProt Q16512) | – | 70
LIM domain kinase 2 (LIMK2, Homo sapiens, UniProt P53671) | competition with immobilised ligand | 43
WNK3 (Homo sapiens, UniProt Q9BYP7) | – | 93
PIK3CA (Homo sapiens, UniProt P42336, I800L) | – | 98

Study 2
SMILES: CC(=O)N[C@@H](Cc1c[nH]c2ccccc12)C(=O)N[C@@H](CCC(=O)C=[N+]=[N-])C(=O)OC(C)C
test system | conditions | tumour volume
mouse, EL4 tumour | subcutaneous, 1 mg/kg, day 15 | 0 mm3 and 138 mm3 and 106 mm3
mice, MC-38 tumour rechallenge | 0.26 mg/kg, day 60 after injection | 0 mm3
mice, MC-38 tumour rechallenge | 1 mg/kg, day 32 after injection | 0 mm3
mice, MC-38 tumour rechallenge | 1 mg/kg, day 50 after injection | 0 mm3

Study 3
Target: Dual specificity mitogen-activated protein kinase kinase 1 (MAP2K1, Homo sapiens, UniProt Q02750)
Chain of UniProt Q02750 (whole entry, looked up): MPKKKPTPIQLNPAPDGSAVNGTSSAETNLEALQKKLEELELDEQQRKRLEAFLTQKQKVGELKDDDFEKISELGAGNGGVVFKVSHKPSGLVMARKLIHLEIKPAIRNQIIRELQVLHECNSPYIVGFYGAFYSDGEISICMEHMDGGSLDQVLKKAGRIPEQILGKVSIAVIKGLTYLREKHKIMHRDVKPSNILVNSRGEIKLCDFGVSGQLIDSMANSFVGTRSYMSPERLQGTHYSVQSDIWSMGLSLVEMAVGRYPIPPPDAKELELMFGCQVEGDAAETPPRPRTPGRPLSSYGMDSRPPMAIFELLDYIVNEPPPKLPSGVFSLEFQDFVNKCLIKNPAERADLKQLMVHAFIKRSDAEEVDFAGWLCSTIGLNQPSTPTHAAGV
Effect on: enzyme activity
Mode: inhibitor
Concentration: 0.5 µM
Relative to: control
SMILES | remaining activity [%]
COc1cc2ncnc(Nc3ccc(F)c(Cl)c3)c2cc1OCCCN1CCOCC1 | 107
C#Cc1cccc(Nc2ncnc3cc(OCCOC)c(OCCOC)cc23)c1 | 105
Cn1c2ccccc2c2c3c(c4c5ccccc5n(CCC#N)c4c21)CNC3=O | 90.2
CC(C)[C@H](CO)Nc1nc(Nc2cc(N)cc(Cl)c2)c2ncn(C(C)C)c2n1 | 91.3
O=C(O)c1ccc2c3c1cccc3c(=O)n1c3ccccc3nc21 | 93.7
O=S(=O)(c1cccc2cnccc12)N1CCCNCC1 | 83
Cc1nc(-c2ccccc2)c(-c2ccncc2)o1 | 90.7
CNC(=O)c1cc(Oc2ccc(NC(=O)Nc3ccc(Cl)c(C(F)(F)F)c3)cc2)ccn1 | 102
NCCNc1ncc(C(N)=O)c(Nc2cccc(C(F)(F)F)c2)n1 | 86.5
CO[C@H]1C[C@@H]2CC[C@@H](C)[C@@](O)(O2)C(=O)C(=O)N2CCCC[C@H]2C(=O)O[C@H]([C@H](C)C[C@@H]2CC[C@@H](O)[C@H](OC)C2)CC(=O)[C@H](C)/C=C(\C)[C@@H](O)[C@@H](OC)C(=O)[C@H](C)C[C@H](C)/C=C/C=C/C=C/1C | 92.1
Oc1ccc(-c2nc(-c3ccncc3)c(-c3ccc(F)cc3)[nH]2)cc1 | 93
OCC(O)CCON=C1C(c2c(O)[nH]c3ccccc23)=Nc2ccccc21 (centres unmarked) | 99.7
Nc1ccc2ncnc(NCCc3ccc(Oc4ccccc4)cc3)c2c1 | 107
O=C1NC(=O)C(c2cn(CCCn3ccnc3)c3ccccc23)=C1Nc1ccccc1 | 90.6

Study 4
SMILES: CC(=O)C1=C(C)N(c2cccc(C(F)(F)F)c2)C(=O)N[C@@H]1c1ccc(C#N)nc1
Technique: competition with immobilised ligand
Concentration: 1 µM
target | assay | remaining binding
STK32A (Homo sapiens, UniProt Q8WU08) | cell-free assay | 100%
CSNK1G3 (Homo sapiens, UniProt Q9Y6M4) | cell-free assay | 100%
Cyclin-dependent kinase 4, with cyclin D3 (CDK4, Homo sapiens, UniProt P11802) | cell-free assay | 79.4%
ACVRL1 (Homo sapiens, UniProt P37023) | binding | 71.7%
TLK2 (Homo sapiens, UniProt Q86UE8) | cell-free assay | 100%

A few entries again (study 3):
SMILES | remaining activity [%]
CNC(=O)c1cc(Oc2ccc(NC(=O)Nc3ccc(Cl)c(C(F)(F)F)c3)cc2)ccn1 | 102
Nc1ccc2ncnc(NCCc3ccc(Oc4ccccc4)cc3)c2c1 | 107
Oc1ccc(-c2nc(-c3ccncc3)c(-c3ccc(F)cc3)[nH]2)cc1 | 93
COc1cc2ncnc(Nc3ccc(F)c(Cl)c3)c2cc1OCCCN1CCOCC1 | 107
